Experimental data from different studies.
Every numbered part comes from another study and shows a few of its results, in no order. “And” joins repeats or separate records; there may be more than shown.

Set 1 — quantity: viability
SMILES: CC(C)(C)c1cnc(CSc2cnc(NC(=O)C3CCN(CCCCCSc4cccc5c4CN(C4CCC(=O)NC4=O)C5=O)CC3)s2)o1 (stereo not shown)
HuT78; trypan blue exclusion; 500 nM, 48 h; reference: untreated control: 8.27% and 13.8%
HuT78; cell growth or viability, trypan blue; 1 µM, 48 h: 7.61%
HH; CCK-8; 200 nM: 0%
HuT78; cell growth or viability, trypan blue; 10 nM, 48 h: 98.4%
HH; CCK-8; 500 nM: 0%
HH; CCK-8; 50 nM: 85.1% and 88.1%

Set 2 — organism: Sarcocystis neurona; read-out: parasite activity; tested at: 10 µM; time: 96 h; quantity: activity class
NC[C@H]1CC[C@H](C(=O)Oc2ccc(CCC(=O)O)cc2)CC1: inactive
CSc1ccc2c(c1)N(CCC1CCCCN1C)c1ccccc1S2 (stereo not shown): inactive
COc1cc(C)c(/C=C/C(C)=C/C=C/C(C)=C/C(=O)O)c(C)c1C: inactive
Cc1ccc(Cl)c(Nc2ccccc2C(=O)O)c1Cl: inactive
CC(C)NCC(O)COc1cccc2[nH]ccc12 (stereo not shown): inactive

Set 3 — host: mouse; matrix: microsomes or S9; tested at: 2 µM; time: 0.5 h; quantity: remaining compound
CC(Oc1ccc(Cl)cc1Cl)C(=O)NCCc1ccccc1 (stereo not shown): 15.4%
Cn1c(=O)n(-c2ccccn2)c(=O)c2c3c(sc21)COC(C)(C)C3: 91.3%
CCCS(=O)(=O)N1CC(=O)Nc2ccc(Br)cc21: 83.8%
Cc1c(-c2noc(-c3cnn(C)c3C)c2Cl)cnn1C: 0.2%
COc1ccc(CN2C(=O)N[C@@H](CC(=O)Nc3nc(C(C)(C)C)cs3)C2=O)cc1OC: 5.08%
COc1ccc(C)cc1C1=CC(C)(c2cc(C)ccc2OC)Nc2nnnn21 (stereo not shown): 9.95%

Set 4 — read-out: ligand displacement; tested at: 10 µM; quantity: inhibition
Target: Alpha-1A adrenergic receptor (ADRA1A, Homo sapiens, UniProt P35348)
UniProt P35348, sequence (whole entry, looked up): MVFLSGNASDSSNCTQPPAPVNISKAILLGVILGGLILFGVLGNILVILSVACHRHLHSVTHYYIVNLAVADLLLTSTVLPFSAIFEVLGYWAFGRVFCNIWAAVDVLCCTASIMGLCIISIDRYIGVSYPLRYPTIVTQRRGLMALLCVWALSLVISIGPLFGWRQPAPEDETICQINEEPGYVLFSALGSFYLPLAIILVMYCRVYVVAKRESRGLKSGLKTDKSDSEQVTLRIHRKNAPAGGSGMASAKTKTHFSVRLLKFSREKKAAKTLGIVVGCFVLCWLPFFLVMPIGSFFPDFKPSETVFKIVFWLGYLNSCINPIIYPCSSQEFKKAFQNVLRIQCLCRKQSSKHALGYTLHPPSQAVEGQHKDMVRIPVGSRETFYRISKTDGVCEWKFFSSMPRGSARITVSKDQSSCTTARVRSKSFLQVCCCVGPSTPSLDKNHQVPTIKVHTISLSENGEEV
CCOc1ccc(S(=O)(=O)Nc2ccc(Cl)cc2C#Cc2cnc(C(=O)O)cc2OC)c2ncccc12: 13.3%
Cc1ccccc1Oc1cc(-n2c(=O)cc(C(F)(F)F)[nH]c2=O)c2ccccc2c1Cl: -2.81%
CC(=O)N1CCC(c2ccc(C(=O)NC3=NCCN3)cc2C(F)(F)F)CC1: -5.1%
N#CC1(c2ccccn2)CCN(Cc2cc(C(=O)N3CCCC3)c(=O)n3ccccc23)CC1: -26.4%
CN(C)c1ncnc(-c2ccc3nc(Nc4cc(CN5CCN(C(=O)CC(F)(F)F)CC5)ccn4)[nH]c3c2)c1Cl: 12.8%
O=S(=O)(NC1CCC(c2cc(F)ccc2F)(S(=O)(=O)c2ccc(Cl)cc2)CC1)C(F)(F)F (stereo not shown): 9.88%
C[C@@H](c1cccc(C#N)c1)n1cc(Cl)cc(C(N)=O)c1=N: 54.8%
CN(C)C(=O)c1sc2nc(N3CCC(S(C)(=O)=O)CC3)cc(C(F)(F)F)c2c1N: 22.8%
COc1cc(C(=O)O)ncc1C#Cc1ccccc1NS(=O)(=O)c1cccc2c(N(C)C)ccnc12: 13.7%
CS(=O)(=O)N1CCCC(NC(=O)[C@H](CCC2CCCCC2)NC(=O)c2ccc(CNC(=O)c3cnc4ccccn34)cc2)C1 (stereo partly shown): 34.9%
CC1=C(C#N)C(c2ccc3[nH]nc(C)c3c2)C(C#N)=C(C)N1: 15.6%
O=C1NC(c2ccccn2)Sc2ccccc21 (stereo not shown): -9.97%
CN(C)CC#Cc1ccc(OCCCc2sc(N3CCc4cccc(C(=O)Nc5nc6ccccc6s5)c4C3)nc2C(=O)O)c(F)c1: -19.1%
C[C@@H]1CN(c2cc(-c3n[nH]c4ccc(OC5(C)CC5)cc34)ncn2)C[C@H](C)O1: 3.49%
NC(=O)c1ccc2nc(-c3ccc(C4(N)CCC4)cc3)c(-c3ccccc3)n2n1: 39.4%
COc1cccc(NC(=O)c2nc3scc(CN(C)Cc4ccccc4)c3c(=O)[nH]2)c1: 12.5%
C[C@H](c1ccc(F)cc1)N(Cc1cccc(C(=O)O)c1)C(=O)c1cnc2ccccc2c1: -18.3%
CN1CCN(C(=O)C(C)(C)c2ccc(C(=O)Nc3cn4cc(-c5cc(C(C)(C)C)cc(C(C)(C)C)c5)ccc4n3)cc2)CC1: 66.4%

Set 5 — read-out: enzyme activity; mode: inhibitor; tested at: 77 µM; reference: untreated; quantity: remaining activity
Target: DNA polymerase theta, ATPase domain (POLQ, Homo sapiens, UniProt O75417)
UniProt O75417, sequence (whole entry, unmodified, looked up): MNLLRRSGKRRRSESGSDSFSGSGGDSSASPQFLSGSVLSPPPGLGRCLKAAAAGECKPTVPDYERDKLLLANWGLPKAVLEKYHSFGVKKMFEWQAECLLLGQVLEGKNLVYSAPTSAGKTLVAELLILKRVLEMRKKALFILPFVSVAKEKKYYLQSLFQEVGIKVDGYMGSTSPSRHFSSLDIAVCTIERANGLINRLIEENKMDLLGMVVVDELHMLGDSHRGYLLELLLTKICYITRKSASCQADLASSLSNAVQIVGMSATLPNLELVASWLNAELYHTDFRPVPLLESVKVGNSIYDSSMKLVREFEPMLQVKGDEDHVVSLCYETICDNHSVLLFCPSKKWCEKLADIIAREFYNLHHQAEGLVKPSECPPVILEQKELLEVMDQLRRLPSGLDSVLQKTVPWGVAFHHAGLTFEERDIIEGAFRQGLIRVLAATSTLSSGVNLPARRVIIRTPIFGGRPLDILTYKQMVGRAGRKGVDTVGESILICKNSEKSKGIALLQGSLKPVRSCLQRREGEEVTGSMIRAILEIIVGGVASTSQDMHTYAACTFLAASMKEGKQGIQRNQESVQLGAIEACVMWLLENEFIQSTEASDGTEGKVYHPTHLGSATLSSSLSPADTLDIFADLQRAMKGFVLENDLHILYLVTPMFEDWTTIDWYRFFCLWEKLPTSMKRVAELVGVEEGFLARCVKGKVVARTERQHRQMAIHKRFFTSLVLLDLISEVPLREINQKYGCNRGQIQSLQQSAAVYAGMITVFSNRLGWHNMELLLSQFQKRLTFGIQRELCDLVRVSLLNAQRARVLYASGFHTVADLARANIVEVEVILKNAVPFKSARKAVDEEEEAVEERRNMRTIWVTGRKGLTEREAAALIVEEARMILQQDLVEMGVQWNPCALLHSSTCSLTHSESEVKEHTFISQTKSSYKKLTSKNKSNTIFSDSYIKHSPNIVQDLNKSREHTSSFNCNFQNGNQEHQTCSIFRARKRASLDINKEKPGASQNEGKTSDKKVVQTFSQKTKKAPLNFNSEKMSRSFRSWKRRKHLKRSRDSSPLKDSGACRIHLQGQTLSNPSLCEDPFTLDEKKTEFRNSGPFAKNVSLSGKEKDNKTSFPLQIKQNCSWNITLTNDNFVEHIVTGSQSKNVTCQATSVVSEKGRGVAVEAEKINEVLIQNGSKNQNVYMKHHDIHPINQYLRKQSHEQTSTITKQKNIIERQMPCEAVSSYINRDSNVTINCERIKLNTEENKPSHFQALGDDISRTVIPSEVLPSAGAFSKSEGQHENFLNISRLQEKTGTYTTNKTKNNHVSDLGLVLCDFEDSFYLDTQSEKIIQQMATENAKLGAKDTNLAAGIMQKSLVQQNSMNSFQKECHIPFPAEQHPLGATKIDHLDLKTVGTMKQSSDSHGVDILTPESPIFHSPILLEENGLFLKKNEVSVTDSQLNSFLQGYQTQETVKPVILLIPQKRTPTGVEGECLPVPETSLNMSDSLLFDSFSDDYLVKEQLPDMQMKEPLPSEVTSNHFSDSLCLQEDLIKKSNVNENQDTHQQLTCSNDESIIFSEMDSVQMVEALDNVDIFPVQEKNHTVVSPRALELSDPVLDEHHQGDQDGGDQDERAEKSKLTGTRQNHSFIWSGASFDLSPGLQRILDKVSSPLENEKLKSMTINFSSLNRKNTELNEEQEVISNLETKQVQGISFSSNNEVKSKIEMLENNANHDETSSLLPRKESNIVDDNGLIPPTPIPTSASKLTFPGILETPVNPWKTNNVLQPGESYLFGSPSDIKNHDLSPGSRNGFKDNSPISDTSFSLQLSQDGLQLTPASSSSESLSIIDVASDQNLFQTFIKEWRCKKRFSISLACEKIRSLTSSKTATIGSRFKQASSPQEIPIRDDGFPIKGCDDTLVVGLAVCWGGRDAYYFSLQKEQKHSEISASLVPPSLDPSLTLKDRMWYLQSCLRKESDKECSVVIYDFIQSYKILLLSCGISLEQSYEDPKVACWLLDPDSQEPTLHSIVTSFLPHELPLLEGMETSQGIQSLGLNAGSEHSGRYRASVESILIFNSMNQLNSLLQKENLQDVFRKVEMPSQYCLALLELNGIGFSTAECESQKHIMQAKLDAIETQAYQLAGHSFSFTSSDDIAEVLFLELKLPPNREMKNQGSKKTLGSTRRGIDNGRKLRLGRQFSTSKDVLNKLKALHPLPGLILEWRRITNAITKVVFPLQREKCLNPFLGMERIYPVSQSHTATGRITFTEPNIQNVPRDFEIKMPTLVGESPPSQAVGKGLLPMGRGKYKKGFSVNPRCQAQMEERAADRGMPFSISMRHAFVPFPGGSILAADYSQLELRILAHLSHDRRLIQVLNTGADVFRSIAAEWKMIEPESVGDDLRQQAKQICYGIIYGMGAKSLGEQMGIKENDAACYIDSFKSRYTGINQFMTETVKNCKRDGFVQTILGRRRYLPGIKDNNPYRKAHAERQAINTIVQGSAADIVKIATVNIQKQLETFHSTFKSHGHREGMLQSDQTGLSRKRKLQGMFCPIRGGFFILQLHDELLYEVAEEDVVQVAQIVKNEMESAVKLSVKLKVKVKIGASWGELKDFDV
CCSc1ccc2c(c1)N(CCCN1CCN(C)CC1)c1ccccc1S2: 106%
CO[C@@H]1[C@@H](OC(N)=O)[C@@H](O)[C@H](Oc2ccc3c(O)c(NC(=O)c4ccc(O)c(CC=C(C)C)c4)c(=O)oc3c2C)OC1(C)C: 61.9%
CCCCCCN(CCCCCC)C(=O)Cc1c(-c2ccc(F)cc2)[nH]c2ccccc12: 100%
COc1ccccc1OCC(O)CO (stereo not shown): 101%
C[C@@H]1CC(=O)NN=C1c1ccc(NN=C(C#N)C#N)cc1: 78.6%

A few entries again (set 3):
Cn1c(=O)n(-c2ccccn2)c(=O)c2c3c(sc21)COC(C)(C)C3: 91.3%
COc1ccc(C)cc1C1=CC(C)(c2cc(C)ccc2OC)Nc2nnnn21 (stereo not shown): 9.95%
CC(Oc1ccc(Cl)cc1Cl)C(=O)NCCc1ccccc1 (stereo not shown): 15.4%
Cc1c(-c2noc(-c3cnn(C)c3C)c2Cl)cnn1C: 0.2%
CCCS(=O)(=O)N1CC(=O)Nc2ccc(Br)cc21: 83.8%
COc1ccc(CN2C(=O)N[C@@H](CC(=O)Nc3nc(C(C)(C)C)cs3)C2=O)cc1OC: 5.08%
